# Measured values of several laboratories.
# Each numbered part is a random draw from the data of one study; scales do not carry over between parts.

# Sample 1 — technique: protein binding microarray; form: double-stranded DNA, one strand shown; medium: in vitro; concentration: not given; reference: not given; direction: higher = stronger binding
# Target: Histone acetyltransferase KAT6A, both winged helices, GST fusion (KAT6A, Homo sapiens, UniProt Q92794, residues 1-181)
# Setting: 8-mer, flanks averaged, mean of 2 arrays, mostly near background
# Construct (chain): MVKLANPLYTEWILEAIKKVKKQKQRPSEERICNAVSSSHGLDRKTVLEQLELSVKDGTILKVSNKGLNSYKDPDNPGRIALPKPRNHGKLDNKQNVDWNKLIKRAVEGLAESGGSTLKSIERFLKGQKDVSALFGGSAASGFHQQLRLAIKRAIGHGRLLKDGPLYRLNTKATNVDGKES
Sequence,E-score
TAAGTATA,-0.00628
AGCCCTAC,-0.0752
AAAATATG,-0.202
CCACCAGG,-0.182
AGTCCGCG,0.318
CTACCACC,-0.0999
ATGCCAAG,-0.334
CCGCCGCA,0.318
TGAGCAAA,-0.112
AATTTCCA,-0.0712
GGCAGTGA,-0.117
ACGCGACC,0.217
AGCCGGCC,0.171
ACTAATCT,-0.168
AGTAAAGG,-0.0303
TGAACTCA,-0.199
CTAGTTTA,0.0629
CACTTTGG,-0.0734
AACAGGGG,-0.268
ATCTGTTG,-0.232
CCCGGAAC,0.0814
GCGCTGCA,0.29

# Sample 2 — technique: protein-binding microarray; form: double-stranded DNA, one strand shown; medium: in vitro; concentration: 940 nM top; setting: 60-bp whole probe; with: salmon DNA 0.4 mg/ml; reference: random background probes; direction: higher = stronger binding; shared flanks, not repeated: GCCTAGCAC … GTCTTGATTCGCTTGACGCTGCTG
# Target: Interferon regulatory factor 5, full length, phosphomimetic (IRF5, Homo sapiens, UniProt Q13568-2, residues 1-514, S451D/S453D/S456D/S462D)
Sequence,fitted relative affinity [z-score]
GACGATCTCAGCCTCGAGACGTGCTAG,-0.334
TCAGCTTTTTTTCCGAGACTGTGCTAG,1.24
TCACATATTCTCTTCTTACTGTGCTAG,1.89
GACGATCTCAGCATCGAGACGTGCTAG,-0.309
GACGGTTTCGTTTTCGGGACGTGCTAG,8.35
TTAGAACTGTGTTTCGATTAGTGCTAG,2.75
GACGATCTCAGTCTCGAGATGTGCTAG,0.595
ATAGGACTGGGGTATCGGTTAGTGCTA,2.46
TTTGCTTTAGTCATTCACTGAGTGCTA,-0.084
TTAGGTACCCTACTGCTTTAGTGCTAG,-0.165
CTAGGTATCCTTATCCTTTAGTGCTAG,0.285
GACGGTTTCGGTTCCGAGACGTGCTAG,13.2
TACTGTCTGTTTCCTCTTTCTGTGCTA,1.85
TACGATATCAGTCTCGAGACGTGCTAG,1.67
GACGATCTCAGTTTCTAGACGTGCTAG,1.28
TTAGGTTTCGACTTTCGGTCAGTGCTA,8.92
TTAGAACTGAGTAACGATTAGTGCTAG,-0.0819
TCATGCTTGTATCTGGGACTGTGCTAG,-0.208
GACGTACTGGGGTATCGAGACGTGCTA,0.83
TTAGATATCGGGACTGGGTTAGTGCTA,0.0153
TCATACTTCTCTTTTGGACTGTGCTAG,0.873
TCCCTTTTCATGCTCTTATAGTGCTAG,1.85
GACGGTTTTGACTATCGGGACGTGCTA,0.336
GCCGAACTGGGGACTGGAGACGTGCTA,-0.0487
TGAGATTTCAGTATCGATTAGTGCTAG,5.49

# Sample 3 — cell line: yeast with cyclin D1-Cln2 chimera; read-out: cell growth; action: binder; technique: competitive growth deep sequencing; form: peptide; concentration: concentration not given; setting: peptide tiling library; direction: direction not given
Sequence,growth enrichment score
TTTTSPRTPPPLTVQD,1.08
KRRLDLETDHQY,-0.297
RRRIKLPESDSSED,0.321
DSGFCLDSPGPLDSKE,1.03
PFSENVSAVQKLDFSD,1.33
KSKHEEEEWTDDDLVE,1.5
NSMKELNFSHLPSNSV,1.1
NEGVSNAVRRSLYIRD,-0.555

# Sample 4 — technique: RNA Bind-n-Seq; form: RNA; medium: in vitro; concentration: 20 nM; setting: 6-mer, flanks averaged, single round; with: 150 mM KCl; reference: input library; direction: higher = stronger binding
# Target: TAR DNA-binding protein 43, full length, His tag (TARDBP, Homo sapiens, UniProt Q13148, residues 1-414)
Sequence,6-mer enrichment (R)
AAUGAU,0.69
CUACCU,0.568
CGAUGG,1.38
CAAGAG,1.05
UAAUAG,0.728
UAAUAA,1.53
UUCGGU,0.685
GCUAUC,0.62
CGCGAG,1.45
GUACUA,0.628
CGGUUG,1.18
ACCCAA,0.654
UGUAUG,1.38
UGCGUA,0.849
AUUGAU,0.604
UAGGUA,0.78
CUUCUC,0.543
AGUGUA,0.931
CAAGUG,0.964
GUACGC,0.917
GAACGG,1.85

# Sample 5 — technique: universal PBM; form: double-stranded DNA, one strand shown; medium: in vitro; concentration: 600 nM; direction: higher = stronger binding
# Target: Sal-like protein 4, full length isoform A (SALL4, Homo sapiens, UniProt Q9UJQ4, residues 1-1053)
# UniProt Q9UJQ4, sequence (whole entry, looked up): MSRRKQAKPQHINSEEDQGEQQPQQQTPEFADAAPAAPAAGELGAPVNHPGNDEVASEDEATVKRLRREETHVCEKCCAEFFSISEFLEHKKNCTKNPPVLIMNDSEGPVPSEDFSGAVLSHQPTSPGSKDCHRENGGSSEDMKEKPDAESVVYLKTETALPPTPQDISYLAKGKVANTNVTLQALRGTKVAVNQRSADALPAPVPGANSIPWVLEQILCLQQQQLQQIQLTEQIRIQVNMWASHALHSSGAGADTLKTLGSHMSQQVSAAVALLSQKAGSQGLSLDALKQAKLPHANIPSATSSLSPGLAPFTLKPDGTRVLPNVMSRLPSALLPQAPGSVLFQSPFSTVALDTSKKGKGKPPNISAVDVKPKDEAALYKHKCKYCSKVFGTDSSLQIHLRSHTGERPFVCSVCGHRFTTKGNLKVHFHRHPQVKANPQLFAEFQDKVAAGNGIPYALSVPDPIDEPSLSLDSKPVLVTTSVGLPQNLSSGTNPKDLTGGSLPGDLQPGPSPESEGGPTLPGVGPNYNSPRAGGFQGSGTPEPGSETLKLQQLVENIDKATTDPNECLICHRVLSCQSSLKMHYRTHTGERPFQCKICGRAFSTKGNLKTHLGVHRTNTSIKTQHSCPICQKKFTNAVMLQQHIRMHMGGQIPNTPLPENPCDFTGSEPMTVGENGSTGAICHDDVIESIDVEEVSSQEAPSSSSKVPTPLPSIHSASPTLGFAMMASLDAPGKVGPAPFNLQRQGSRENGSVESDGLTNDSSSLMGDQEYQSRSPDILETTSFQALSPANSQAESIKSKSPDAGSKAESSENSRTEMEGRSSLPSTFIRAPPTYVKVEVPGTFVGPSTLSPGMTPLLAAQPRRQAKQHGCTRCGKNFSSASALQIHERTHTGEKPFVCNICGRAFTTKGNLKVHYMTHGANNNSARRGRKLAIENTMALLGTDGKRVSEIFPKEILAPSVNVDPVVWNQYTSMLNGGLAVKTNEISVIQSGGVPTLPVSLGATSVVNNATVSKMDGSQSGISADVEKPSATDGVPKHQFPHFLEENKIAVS
# Setting: 8-mer, flanks averaged, mean of replicates
Sequence,E-score
AGTGAAGC,-0.0154
GGGTCTAC,-0.162
CCAGCCAA,-0.15
ATGAGCCC,-0.149
GCAGGAGA,-0.0689
GCGAGTTA,-0.00359
CCATTTGA,-0.00814
TCGTGCAA,0.198
CACGGAAC,0.00806
GGGGCCCA,-0.398
TAATACAA,0.309
CTCAAGAA,0.107
CTAAACAA,0.132
CGCGCAGC,-0.326
CAGAGATC,-0.169
CACGACTC,-0.081
ACCACCGA,-0.222
AAGCAGTC,-0.0386
CGATCCCC,-0.269

# Sample 6 — technique: RNA Bind-n-Seq; form: RNA; medium: in vitro; concentration: 365 nM; reference: no-protein control; direction: higher = stronger binding
# Target: RNA binding protein fox-1 homolog 2, RRM domain, GST-SBP tag (RBFOX2, Homo sapiens, UniProt O43251-10, residues 100-194)
# Setting: natural RNA segment, single round, ends assumed
# Shared flanks, not repeated: GGGAGUUCUACAGUCCGACGAUC … UGGAAUUCUCGGGUGCCAA
# Residues (chain): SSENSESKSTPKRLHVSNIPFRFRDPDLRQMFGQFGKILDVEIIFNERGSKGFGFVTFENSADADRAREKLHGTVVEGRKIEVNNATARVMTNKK
Sequence,RBNS enrichment (R)
GAGCCUCGGUUUGCCCAGGCCCCUGGGUGCCCCUGCCCACCUACACCUUGAGGGGCUGACCUGUGUUAGGCAGUGGCCAUGGCCCAGUGUGAUGUUGUGUUGCUCACACA,0.542
GAGAGGGCUUGUAUCCCUCUUGUGCUAAGCAGACUCUACUCCUAACUGACUUCAAUAUUUCAGCAGGGUACACAGGCGUUUCCAAGUUUCAGUGACACCGUCCUGCCUAA,0.282
GACCCUGGGGGCUGUGCCCCCAUCUCCUCCCCACCCCAGGUCUAGUGGCCCCACCCUCCAUUCCGGACCCCAUGGGCCCAGCCCCUGCCCAUCUAGUUGGUUUGGGGACC,0.435
CAGCCGGAGUUGAGAAGGAGUAACAGGUCUGAGGCUGUCCCGGAGAACCACCCAUCCCAGCUCAGCCCCAAGAACCAACCAAAGAGCCAGUCAAAAGCAAGCUGGGUUUG,0.441
AUUGGAACUUUUUGAAGUGUGUGGGACUAUGAGAAGAAUUUCUUACUAACAUUUCCAAUAUCUGUAAGAUACCAAAGGACUGAGACUAACUGAUCUUUUAAUGGAAUUUC,0.61
UCCCUAGAAAUUGGCUCACCUUGGGAAACCCAGGGAAAGAAUCAGCAGGUUCUCUGCCCUCCCUAGGGGUUGGGGAAGGACCCACCCCGGUCAGCACAGUGCCUUUUCCU,0.336
UAUACAAAGAAACUACAUAUAGUUUUAUGAUUUAAGGUACUUAGAAAUGUUUAUGGUUAACAUUGUAUAUAUUUACAUAAAAUUUAAAGGUUUUGUAUAUGGGAUUUUCU,0.962
AGUCACCAAACUCAGAAAAAACUAGCUGUGUGAGCAGCACCGUACCCUAGCGGUCUUCAGACAUUAAGUUCACGUCAUCCACUGAAAGGAAGGGUCCUUGCGUUGACAGC,0.3
UGCAUAUAUUGUAAAAUAGGAUCAGAUGUAUAUUUUAAACUAAUUUCAAUGGAUUUUCCUCUUGAAAUGCUUUGUCUACUCAGUUAUAAAAUAUUCAGAUACAAGUUUUA,0.546
AUCAGUUGUAUUCUAGUAAAGAACCUCUUUGGGGACUGUAGGAAAGCAUGUUUUUGUGGUUAUAAAAACACUUAAAAAUCCUGAUAAUUCUGGGCUUGUAUAAUGCCUGU,1.43
GAUGCCUAAUUUCUCUAUGUUCUGUUUGAAGGUUUCUGUCCAGAUAAAAUUGUCUUUUGAAAUUCAAUACUGUCUUGUGUUUACUUUUAGCUUCAGGGAAACCUCUUCCC,0.851
UCAUCGAAGAGACCAGCUCUGACACAGACUAAAAGCAUCACCUGCUCAACUCUCAAUAUUGCUUUAUCAGCAUCUUUUCUCUGUAGCUCCAGGGGAAUCUUUUCUCUAAA,0.33

# Some of these lines once more (sample 1):
Sequence,E-score
ATGCCAAG,-0.334
CCGCCGCA,0.318
TGAGCAAA,-0.112
AATTTCCA,-0.0712
GGCAGTGA,-0.117
ACGCGACC,0.217
AGCCGGCC,0.171
ACTAATCT,-0.168
AGTAAAGG,-0.0303
TGAACTCA,-0.199
CTAGTTTA,0.0629
CACTTTGG,-0.0734
